Values quoted from earlier work as cited in several papers.
Lines come from different studies, so protocols differ.

Structure (SMILES) | target or system | test | test system | setting | endpoint | result
CCCCCCCCCCCCCCCCOP(=O)([O-])OCC[N+](C)(C)C | Naegleria fowleri | – | KUL trophozoites | – | EC50 | 50 µM
Cc1cn([C@H]2C[C@H](N=[N+]=[N-])[C@@H](CO)O2)c(=O)[nH]c1=O | HIV-1 | – | X4 LAI.04, human tissue ex vivo | – | EC50 | 0.0031 µM
O=C1c2cccc3c2[C@H](CCC3)CN1[C@@H]1CN2CCC1CC2 | – | – | patients, plasma | oral, dose not given, netupitant-palonosetron combination, with: etoposide 35 to 100 mg/m^2 IV | Vz/F | 679 L
Nc1nc2c(nc(Sc3ccc(Cl)cc3)n2C2OC3COP(O)(=S)OC3C2O)c(=O)[nH]1 (stereo not drawn) | PDE5 | cyclic nucleotide hydrolysis, substrate or inhibitor, isothermal titration calorimetry | – | – | Km or Ki | 49.7 µM
COc1ccc(C(=O)NN=Cc2ccc(O)c3ncccc23)cc1 | Bacillus subtilis | bacterial growth | – | – | EC50 | 83 µM
CCCCCCCCCCCCCCCCOP(=O)([O-])OCC[N+](C)(C)C | Leishmania mexicana | – | – | intracellular amastigotes | EC50 | 6.83 to 10.1 µM
COc1ccc(C(=O)Nc2c(Cl)cncc2Cl)cc1OC1CCCC1 | Trypanosoma brucei brucei | cell growth | – | – | EC50 | 9.6 µM
O=c1c2nc(Br)n([C@@H]3O[C@@H]4COP(=O)(O)O[C@H]4[C@H]3O)c2nc2[nH]c(-c3ccccc3)cn12 | PDE6 | cyclic nucleotide hydrolysis, substrate or inhibitor, isothermal titration calorimetry | – | – | Km or Ki | 11.2 µM
C[C@@H]1[C@H](O)[C@@H](C)/C=C/C=C/C=C/C=C/C=C/C=C/C=C/[C@H](O[C@@H]2O[C@H](C)[C@@H](O)[C@H](N)[C@@H]2O)C[C@@H]2O[C@](O)(C[C@@H](O)C[C@@H](O)[C@H](O)CC[C@@H](O)C[C@@H](O)CC(=O)O[C@H]1C)C[C@H](O)[C@H]2C(=O)O | Leishmania donovani | – | intramacrophage amastigotes | – | EC50 | 0.07 µM
COc1cc(Cc2cnc(N)nc2N)cc(OC)c1OC | Sarcocystis neurona | parasite growth | – | – | EC50 | ~8.6 µM
NC[C@@H]1O[C@H](O[C@H]2[C@@H](O)[C@H](O[C@@H]3[C@@H](O)[C@H](N)C[C@H](N)[C@H]3O[C@H]3O[C@H](CO)[C@@H](O)[C@H](O)[C@H]3N)O[C@@H]2CO)[C@H](N)[C@@H](O)[C@@H]1O | Leishmania donovani | – | intramacrophage amastigotes | – | EC50 | 6.6 µM
C[C@@]12CC[C@H]3c4ccc(O)cc4CC[C@@H]3[C@H]1CC[C@H]2O (single isomer, unassigned) | HT-22 | cell protection | – | with: iodoacetic acid 20 µM | EC50 | 7.11 µM
OC(Cn1cncn1)(Cn1cncn1)c1ccc(F)cc1F | Leishmania donovani | growth | LV82 promastigote | – | EC50 | > 100 µM
CC(=O)c1cccc(N[C@H]2[C@H](N)[C@@](NC(=O)N(C)C)([C@H](C)O)[C@@](C)(O)[C@@]2(O)COC(=O)c2c(C)cccc2O)c1 | MCF7 (breast cancer) | cell growth | – | NCI screen data | GI50 | < 0.01 µM
CN[C@@H]1[C@H](O[C@@H]2OC[C@@H](O)[C@H](O)[C@H]2O)[C@@H](O)[C@H](O[C@H]2c3cc(C)c(C(=O)N[C@H](C)C(=O)O)c(O)c3-c3c(cc4c(c3O)C(=O)c3cc(OC)cc(O)c3C4=O)[C@@H]2O)O[C@@H]1C | HIV-1 | giant cell formation | – | – | EC50 | ≥ 15 µM
Nc1c(Cc2cccc3ccccc23)c(C2CC2)c2n(c1=O)C(n1cc(-c3ccccc3)nn1)CS2 (stereo not drawn) | Chlamydia trachomatis | infectivity | serovar L2 | – | EC50 | < 0.06 µM
CC(C)Nc1nc2cc(Cl)c(Cl)cc2n1[C@H]1O[C@@H](CO)[C@H](O)[C@@H]1O | human cytomegalovirus | viral replication | – | – | EC50 | 0.35 µM
C[C@]12CC=C3c4ccc(O)cc4CC[C@H]3[C@@H]1CC[C@@H]2O | HT-22 | cell protection | – | with: glutamate 10 mM | EC50 | 1.02 µM
Nc1ccn([C@@H]2CS[C@H](CO)O2)c(=O)n1 | HIV-1 | – | MT-4, LAI.04 | – | EC50 | 0.017 µM
CCc1nc(N)nc(N)c1-c1ccc(Cl)cc1 | Toxoplasma gondii | parasite growth | RH | – | EC50 | 0.402 µM
C[C@H]1c2cccc(O)c2C(=O)C2=C(O)[C@]3(O)C(=O)C(C(N)=O)=C(O)[C@@H](N(C)C)[C@@H]3[C@@H](O)[C@@H]21 | Plasmodium falciparum | parasite growth | blood stage | – | EC50 | 0.3 µM
